Assay results pooled from the literature.
A part holds a random share of what one study measured.
Chain of UniProt Q05513 (whole entry, looked up): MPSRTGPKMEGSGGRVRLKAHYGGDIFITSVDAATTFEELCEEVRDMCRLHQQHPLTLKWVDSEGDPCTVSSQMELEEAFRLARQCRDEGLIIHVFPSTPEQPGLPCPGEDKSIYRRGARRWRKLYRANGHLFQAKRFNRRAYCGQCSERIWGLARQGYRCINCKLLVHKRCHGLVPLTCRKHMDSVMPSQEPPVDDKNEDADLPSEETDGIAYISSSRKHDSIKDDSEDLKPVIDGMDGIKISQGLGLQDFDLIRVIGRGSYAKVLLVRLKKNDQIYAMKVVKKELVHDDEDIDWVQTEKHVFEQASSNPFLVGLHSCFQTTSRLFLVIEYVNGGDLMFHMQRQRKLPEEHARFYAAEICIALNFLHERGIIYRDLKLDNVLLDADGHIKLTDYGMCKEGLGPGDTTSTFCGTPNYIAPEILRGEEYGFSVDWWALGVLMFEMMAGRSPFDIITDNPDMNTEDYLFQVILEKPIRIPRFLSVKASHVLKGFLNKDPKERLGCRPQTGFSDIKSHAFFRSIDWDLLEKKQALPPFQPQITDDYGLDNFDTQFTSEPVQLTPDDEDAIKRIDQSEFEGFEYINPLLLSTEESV
Chain of UniProt O15146 (whole entry, looked up): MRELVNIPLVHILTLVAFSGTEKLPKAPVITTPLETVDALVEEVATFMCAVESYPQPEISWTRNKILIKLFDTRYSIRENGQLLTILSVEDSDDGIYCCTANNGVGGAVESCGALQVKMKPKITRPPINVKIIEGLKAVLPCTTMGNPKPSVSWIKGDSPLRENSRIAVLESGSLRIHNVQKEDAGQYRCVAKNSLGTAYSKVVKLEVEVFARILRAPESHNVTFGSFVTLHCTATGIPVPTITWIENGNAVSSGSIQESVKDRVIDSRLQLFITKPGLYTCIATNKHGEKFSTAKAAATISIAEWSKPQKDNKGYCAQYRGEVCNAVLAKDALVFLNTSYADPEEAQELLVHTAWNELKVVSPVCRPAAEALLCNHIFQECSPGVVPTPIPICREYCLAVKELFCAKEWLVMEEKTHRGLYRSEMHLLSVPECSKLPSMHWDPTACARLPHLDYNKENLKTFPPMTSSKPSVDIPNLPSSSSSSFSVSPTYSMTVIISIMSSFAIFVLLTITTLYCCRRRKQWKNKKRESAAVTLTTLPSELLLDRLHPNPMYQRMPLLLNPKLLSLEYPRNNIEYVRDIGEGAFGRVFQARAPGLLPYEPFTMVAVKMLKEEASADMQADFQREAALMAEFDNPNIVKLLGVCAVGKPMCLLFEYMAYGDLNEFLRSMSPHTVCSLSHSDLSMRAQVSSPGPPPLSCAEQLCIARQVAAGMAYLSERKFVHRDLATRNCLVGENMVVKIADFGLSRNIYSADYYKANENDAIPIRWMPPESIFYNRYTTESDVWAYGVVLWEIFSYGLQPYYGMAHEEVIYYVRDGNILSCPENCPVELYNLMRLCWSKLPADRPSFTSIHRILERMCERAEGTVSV
Chain of UniProt Q8IWQ3 (whole entry, looked up): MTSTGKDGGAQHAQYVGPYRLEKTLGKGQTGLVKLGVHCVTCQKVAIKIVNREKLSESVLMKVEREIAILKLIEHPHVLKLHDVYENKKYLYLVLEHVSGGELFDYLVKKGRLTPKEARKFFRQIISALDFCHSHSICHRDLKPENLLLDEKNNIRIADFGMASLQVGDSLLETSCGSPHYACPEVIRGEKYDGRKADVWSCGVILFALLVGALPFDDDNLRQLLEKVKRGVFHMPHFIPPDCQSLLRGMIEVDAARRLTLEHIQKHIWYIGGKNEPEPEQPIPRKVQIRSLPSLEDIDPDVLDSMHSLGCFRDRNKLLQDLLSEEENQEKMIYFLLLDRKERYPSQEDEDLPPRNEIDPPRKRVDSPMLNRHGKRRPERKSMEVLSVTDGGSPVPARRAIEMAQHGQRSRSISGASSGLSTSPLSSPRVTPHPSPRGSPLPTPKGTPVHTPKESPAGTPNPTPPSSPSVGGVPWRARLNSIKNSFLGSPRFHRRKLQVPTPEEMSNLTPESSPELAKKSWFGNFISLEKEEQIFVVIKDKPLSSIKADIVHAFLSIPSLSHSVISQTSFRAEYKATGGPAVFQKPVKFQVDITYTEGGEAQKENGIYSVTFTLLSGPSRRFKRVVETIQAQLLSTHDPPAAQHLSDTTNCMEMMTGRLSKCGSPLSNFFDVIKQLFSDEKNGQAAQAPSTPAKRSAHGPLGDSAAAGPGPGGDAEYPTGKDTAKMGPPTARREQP
Chain of UniProt Q9NQU5 (whole entry, looked up): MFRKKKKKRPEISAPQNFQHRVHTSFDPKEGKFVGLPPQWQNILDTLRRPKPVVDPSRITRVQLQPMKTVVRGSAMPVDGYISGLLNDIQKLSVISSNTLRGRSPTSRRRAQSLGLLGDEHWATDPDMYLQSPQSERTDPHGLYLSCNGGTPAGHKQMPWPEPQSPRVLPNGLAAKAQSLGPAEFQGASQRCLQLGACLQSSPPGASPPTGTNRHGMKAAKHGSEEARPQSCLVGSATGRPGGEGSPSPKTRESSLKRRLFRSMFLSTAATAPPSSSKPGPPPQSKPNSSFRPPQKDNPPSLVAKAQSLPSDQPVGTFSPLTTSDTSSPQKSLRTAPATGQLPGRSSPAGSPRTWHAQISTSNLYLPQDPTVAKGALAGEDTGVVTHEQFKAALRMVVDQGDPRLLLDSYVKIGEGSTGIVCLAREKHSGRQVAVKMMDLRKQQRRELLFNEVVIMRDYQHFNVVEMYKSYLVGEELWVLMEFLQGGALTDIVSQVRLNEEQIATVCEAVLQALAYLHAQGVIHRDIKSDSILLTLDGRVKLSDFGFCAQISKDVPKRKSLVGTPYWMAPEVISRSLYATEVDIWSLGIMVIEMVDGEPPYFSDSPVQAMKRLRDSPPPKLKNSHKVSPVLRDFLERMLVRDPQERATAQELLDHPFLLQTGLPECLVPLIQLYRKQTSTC
Chain of UniProt Q96SB4 (whole entry, looked up): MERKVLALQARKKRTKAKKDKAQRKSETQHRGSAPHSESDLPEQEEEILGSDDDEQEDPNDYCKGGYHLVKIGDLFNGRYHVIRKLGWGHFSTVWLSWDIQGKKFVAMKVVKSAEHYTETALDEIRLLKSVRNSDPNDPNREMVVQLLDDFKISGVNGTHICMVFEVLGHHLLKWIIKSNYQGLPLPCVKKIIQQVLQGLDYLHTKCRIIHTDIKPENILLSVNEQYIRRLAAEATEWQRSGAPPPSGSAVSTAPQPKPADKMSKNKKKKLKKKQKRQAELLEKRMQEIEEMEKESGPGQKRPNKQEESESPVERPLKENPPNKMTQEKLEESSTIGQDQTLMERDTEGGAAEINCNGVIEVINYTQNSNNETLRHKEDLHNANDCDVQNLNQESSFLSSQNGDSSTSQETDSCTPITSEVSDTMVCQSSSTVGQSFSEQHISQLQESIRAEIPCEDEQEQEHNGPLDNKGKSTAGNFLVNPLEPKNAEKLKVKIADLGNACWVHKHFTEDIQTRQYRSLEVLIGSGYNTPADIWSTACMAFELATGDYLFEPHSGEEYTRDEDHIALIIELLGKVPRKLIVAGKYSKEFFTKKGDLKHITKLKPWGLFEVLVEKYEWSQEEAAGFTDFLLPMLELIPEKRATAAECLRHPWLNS
Chain of UniProt P29317 (whole entry, looked up): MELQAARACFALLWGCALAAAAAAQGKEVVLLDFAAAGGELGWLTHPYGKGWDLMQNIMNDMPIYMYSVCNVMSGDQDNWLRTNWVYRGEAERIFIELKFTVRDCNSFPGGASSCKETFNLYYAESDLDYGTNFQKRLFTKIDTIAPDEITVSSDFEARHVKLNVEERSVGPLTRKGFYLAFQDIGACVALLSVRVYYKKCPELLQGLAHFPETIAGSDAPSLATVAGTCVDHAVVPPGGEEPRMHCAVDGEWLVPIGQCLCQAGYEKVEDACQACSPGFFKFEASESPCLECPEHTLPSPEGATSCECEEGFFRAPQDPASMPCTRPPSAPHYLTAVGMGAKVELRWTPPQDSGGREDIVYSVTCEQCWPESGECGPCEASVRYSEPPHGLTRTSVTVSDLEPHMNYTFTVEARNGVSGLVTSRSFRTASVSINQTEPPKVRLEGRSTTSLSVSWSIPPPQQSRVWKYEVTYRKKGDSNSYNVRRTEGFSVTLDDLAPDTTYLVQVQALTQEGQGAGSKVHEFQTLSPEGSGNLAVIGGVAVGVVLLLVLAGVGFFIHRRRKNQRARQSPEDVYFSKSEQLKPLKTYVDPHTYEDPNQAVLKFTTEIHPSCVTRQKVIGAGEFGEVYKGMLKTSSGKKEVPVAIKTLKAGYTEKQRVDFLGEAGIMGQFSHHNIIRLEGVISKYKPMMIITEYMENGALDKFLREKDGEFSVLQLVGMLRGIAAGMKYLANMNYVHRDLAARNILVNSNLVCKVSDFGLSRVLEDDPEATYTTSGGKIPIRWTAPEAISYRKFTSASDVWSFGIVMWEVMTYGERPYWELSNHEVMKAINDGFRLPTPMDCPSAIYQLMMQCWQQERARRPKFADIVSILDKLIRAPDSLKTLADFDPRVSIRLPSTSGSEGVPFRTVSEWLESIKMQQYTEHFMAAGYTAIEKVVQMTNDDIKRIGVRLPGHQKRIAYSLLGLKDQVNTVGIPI
Chain of UniProt Q9HBY8 (whole entry, looked up): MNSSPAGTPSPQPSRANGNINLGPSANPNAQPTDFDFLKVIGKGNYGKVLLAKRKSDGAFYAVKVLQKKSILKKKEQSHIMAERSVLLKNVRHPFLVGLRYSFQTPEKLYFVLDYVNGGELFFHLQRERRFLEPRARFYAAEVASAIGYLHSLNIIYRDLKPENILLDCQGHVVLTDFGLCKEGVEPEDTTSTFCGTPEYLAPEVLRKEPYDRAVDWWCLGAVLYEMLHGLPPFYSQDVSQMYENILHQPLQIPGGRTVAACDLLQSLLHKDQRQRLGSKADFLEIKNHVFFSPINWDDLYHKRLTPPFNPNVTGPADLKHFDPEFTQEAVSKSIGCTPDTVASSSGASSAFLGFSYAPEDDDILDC

Sample 1
Cell line: HaCaT
Tested at: 100 µM
Time: 18 h
For `CCOc1nc2cccc(C(=O)O)c2n1Cc1ccc(-c2ccccc2-c2noc(=O)[nH]2)cc1`, the viability was 110%.
For `O=C(Nc1ccc(O)cc1)c1ccccc1O`, the viability was 63.1%.
With `COc1c(C)c2c(c(O)c1C/C=C(\C)CCC(=O)O)C(=O)OC2` the viability was 134%.
The viability of `COc1cc([C@@H]2c3cc4c(cc3[C@@H](O[C@@H]3O[C@@H]5CO[C@@H](C)O[C@H]5[C@H](O)[C@H]3O)[C@H]3COC(=O)[C@H]23)OCO4)cc(OC)c1O` is reported as 112%.
The viability of `CC[C@H](C)[C@H](N)C1=N[C@H](C(=O)N[C@@H](CC(C)C)C(=O)N[C@H](CCC(=O)O)C(=O)N[C@H](C(=O)N[C@H]2CCCCNC(=O)[C@H](CC(N)=O)NC(=O)[C@@H](CC(=O)O)NC(=O)[C@H](Cc3cnc[nH]3)NC(=O)[C@@H](Cc3ccccc3)NC(=O)[C@H]([C@@H](C)CC)NC(=O)[C@@H](CCCN)NC2=O)[C@@H](C)CC)CS1` is reported as 107%.
With `C=CC(=O)N1CCC[C@@H](n2nc(-c3ccc(Oc4ccccc4)cc3)c3c(N)ncnc32)C1` the viability was 15.6%.
`Cc1cccc(C)c1OCC(=O)N[C@@H](Cc1ccccc1)[C@@H](O)C[C@H](Cc1ccccc1)NC(=O)[C@H](C(C)C)N1CCCNC1=O` has a viability of 25.9%.
For `CC(C)(C)CC(C)(C)c1ccc(O)c(Cc2ccc(Cl)cc2Cl)c1`, the viability was 16.4%.

Sample 2
Compound: CS(=O)(=O)CCNCc1ccc(-c2ccc3ncnc(Nc4ccc(OCc5cccc(F)c5)c(Cl)c4)c3c2)o1
Effect on: enzyme activity
Mode: inhibitor
Tested at: 0.5 µM
Reference: control
For Ephrin type-A receptor 2 (EPHA2, Homo sapiens, UniProt P29317): remaining activity read 99%.
Serine/threonine-protein kinase Sgk2 (SGK2, Homo sapiens, UniProt Q9HBY8) — remaining activity: 106%.
Insulin-like growth factor 1 receptor (IGF1R, Homo sapiens, UniProt P08069) — remaining activity: 87.4%.
For Protein kinase C zeta type (PRKCZ, Homo sapiens, UniProt Q05513): remaining activity read 79.7%.
For Tyrosine-protein kinase Yes (YES1, Homo sapiens, UniProt P07947): remaining activity read 84.7%.
The remaining activity was 100% (Ribosomal protein S6 kinase beta-2 (RPS6KB2, Homo sapiens, UniProt Q9UBS0)).
It gave 107% for remaining activity (Dual specificity protein kinase CLK1 (CLK1, Homo sapiens, UniProt P49759)).
The remaining activity was 103% (Cyclin-dependent kinase 5, with p35 (CDK5, Homo sapiens, UniProt Q00535)).
It gave 106% for remaining activity (Serine/threonine-protein kinase PAK 6 (PAK6, Homo sapiens, UniProt Q9NQU5)).
The remaining activity was 96.5% (Muscle, skeletal receptor tyrosine-protein kinase (MUSK, Homo sapiens, UniProt O15146)).
For Ribosomal protein S6 kinase alpha-3 (RPS6KA3, Homo sapiens, UniProt P51812): remaining activity read 105%.
Calcium/calmodulin-dependent protein kinase kinase 1 (CAMKK1, Homo sapiens, UniProt Q8N5S9) — remaining activity: 98.8%.
Serine/threonine-protein kinase BRSK2 (BRSK2, Homo sapiens, UniProt Q8IWQ3) — remaining activity: 106%.
It gave 100% for remaining activity (SRSF protein kinase 1 (SRPK1, Homo sapiens, UniProt Q96SB4)).
For Serine/threonine-protein kinase SIK2 (SIK2, Homo sapiens, UniProt Q9H0K1): remaining activity read 101%.

Sample 3
Compound: CNC(=O)Nc1ccc2c(c1)CC[C@@]21OC(=O)N(CC(=O)N(Cc2ccc(F)cc2)[C@@H](C)C(F)(F)F)C1=O
Technique: competition with immobilised ligand
Tested at: 1 µM
For Mitogen-activated protein kinase kinase kinase 19 (MAP3K19, Homo sapiens, UniProt Q56UN5); cell-free assay: remaining binding read 78%.
The remaining binding was 91% (Non-receptor tyrosine-protein kinase TYK2, JH1 (TYK2, Homo sapiens, UniProt P29597); cell-free assay).
Ribosomal protein S6 kinase alpha-6, C-terminal kinase domain (RPS6KA6, Homo sapiens, UniProt Q9UK32); cell-free assay — remaining binding: 84%.
Cyclin-dependent kinase 13 (CDK13, Homo sapiens, UniProt Q14004); cell-free assay — remaining binding: 96%.
It gave 78% for remaining binding (Tyrosine-protein kinase TXK (TXK, Homo sapiens, UniProt P42681); binding).
Ephrin type-A receptor 7 (EPHA7, Homo sapiens, UniProt Q15375); cell-free assay — remaining binding: 88%.
The remaining binding was 67% (Epidermal growth factor receptor (EGFR, Homo sapiens, UniProt P00533, del746-750); cell-free assay).
The remaining binding was 86% (Receptor-type tyrosine-protein kinase FLT3 (FLT3, Homo sapiens, UniProt P36888, D835H); cell-free assay).

Mixed results
For `CCOC(=O)[C@@H]1CSCC(=O)N[C@H](CC)C(=O)N(C)[C@@H](C)C(=O)N[C@H](CC(C)C)C(=O)N2CCC[C@H]2C(=O)N(CC(C)C)CC(=O)N[C@H](CC(C)C)C(=O)N(C)[C@H](C)C(=O)N[C@@H](CC(C)C)C(=O)N1C`, the logD was 1.92 (hydrocarbon/water).

Repeated from above (sample 1):
The viability of `CC[C@H](C)[C@H](N)C1=N[C@H](C(=O)N[C@@H](CC(C)C)C(=O)N[C@H](CCC(=O)O)C(=O)N[C@H](C(=O)N[C@H]2CCCCNC(=O)[C@H](CC(N)=O)NC(=O)[C@@H](CC(=O)O)NC(=O)[C@H](Cc3cnc[nH]3)NC(=O)[C@@H](Cc3ccccc3)NC(=O)[C@H]([C@@H](C)CC)NC(=O)[C@@H](CCCN)NC2=O)[C@@H](C)CC)CS1` is reported as 107%.
With `C=CC(=O)N1CCC[C@@H](n2nc(-c3ccc(Oc4ccccc4)cc3)c3c(N)ncnc32)C1` the viability was 15.6%.
